Published values of several laboratories.
Numbered parts are unrelated; each lists some results of a single study.
Sequence of UniProt P10721 (whole entry, looked up): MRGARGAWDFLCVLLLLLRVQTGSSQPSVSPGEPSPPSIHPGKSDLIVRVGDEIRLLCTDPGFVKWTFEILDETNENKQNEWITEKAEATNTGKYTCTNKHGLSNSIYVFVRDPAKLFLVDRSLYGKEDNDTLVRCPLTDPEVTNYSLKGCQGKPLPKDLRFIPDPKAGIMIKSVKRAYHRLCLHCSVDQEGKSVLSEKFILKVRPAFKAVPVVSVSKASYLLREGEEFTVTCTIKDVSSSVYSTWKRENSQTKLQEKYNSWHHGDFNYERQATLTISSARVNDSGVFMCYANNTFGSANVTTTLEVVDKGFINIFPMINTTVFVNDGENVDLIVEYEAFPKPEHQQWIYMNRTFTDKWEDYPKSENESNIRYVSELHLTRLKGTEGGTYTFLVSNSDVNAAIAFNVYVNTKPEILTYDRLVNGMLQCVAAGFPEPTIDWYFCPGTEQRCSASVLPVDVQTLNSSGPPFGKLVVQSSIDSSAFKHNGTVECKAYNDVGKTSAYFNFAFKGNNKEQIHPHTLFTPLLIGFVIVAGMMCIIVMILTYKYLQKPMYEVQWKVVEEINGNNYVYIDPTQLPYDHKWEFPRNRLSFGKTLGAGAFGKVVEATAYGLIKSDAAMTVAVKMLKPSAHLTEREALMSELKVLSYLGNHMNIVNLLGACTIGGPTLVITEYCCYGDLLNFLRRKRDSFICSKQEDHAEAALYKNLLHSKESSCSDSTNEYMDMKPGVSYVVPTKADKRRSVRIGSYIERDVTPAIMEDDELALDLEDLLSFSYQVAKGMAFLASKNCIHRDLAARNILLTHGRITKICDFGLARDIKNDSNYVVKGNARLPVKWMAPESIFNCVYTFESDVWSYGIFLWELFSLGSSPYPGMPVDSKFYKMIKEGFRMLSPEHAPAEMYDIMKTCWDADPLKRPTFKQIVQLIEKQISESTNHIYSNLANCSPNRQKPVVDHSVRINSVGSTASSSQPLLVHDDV
Sequence of UniProt Q52WX2 (whole entry, looked up): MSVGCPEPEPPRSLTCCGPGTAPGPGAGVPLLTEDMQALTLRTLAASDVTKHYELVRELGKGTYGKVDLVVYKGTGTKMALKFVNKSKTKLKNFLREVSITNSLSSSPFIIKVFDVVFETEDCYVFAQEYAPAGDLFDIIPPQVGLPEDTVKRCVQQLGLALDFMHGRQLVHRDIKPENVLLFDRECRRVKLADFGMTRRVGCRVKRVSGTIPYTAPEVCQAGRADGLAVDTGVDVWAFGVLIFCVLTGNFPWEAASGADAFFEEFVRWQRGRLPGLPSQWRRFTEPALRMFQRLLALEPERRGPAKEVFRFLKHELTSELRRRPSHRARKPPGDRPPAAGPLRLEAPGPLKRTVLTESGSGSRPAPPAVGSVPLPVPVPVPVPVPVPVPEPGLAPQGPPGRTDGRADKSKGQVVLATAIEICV
Sequence of UniProt Q8IVH8 (whole entry, looked up): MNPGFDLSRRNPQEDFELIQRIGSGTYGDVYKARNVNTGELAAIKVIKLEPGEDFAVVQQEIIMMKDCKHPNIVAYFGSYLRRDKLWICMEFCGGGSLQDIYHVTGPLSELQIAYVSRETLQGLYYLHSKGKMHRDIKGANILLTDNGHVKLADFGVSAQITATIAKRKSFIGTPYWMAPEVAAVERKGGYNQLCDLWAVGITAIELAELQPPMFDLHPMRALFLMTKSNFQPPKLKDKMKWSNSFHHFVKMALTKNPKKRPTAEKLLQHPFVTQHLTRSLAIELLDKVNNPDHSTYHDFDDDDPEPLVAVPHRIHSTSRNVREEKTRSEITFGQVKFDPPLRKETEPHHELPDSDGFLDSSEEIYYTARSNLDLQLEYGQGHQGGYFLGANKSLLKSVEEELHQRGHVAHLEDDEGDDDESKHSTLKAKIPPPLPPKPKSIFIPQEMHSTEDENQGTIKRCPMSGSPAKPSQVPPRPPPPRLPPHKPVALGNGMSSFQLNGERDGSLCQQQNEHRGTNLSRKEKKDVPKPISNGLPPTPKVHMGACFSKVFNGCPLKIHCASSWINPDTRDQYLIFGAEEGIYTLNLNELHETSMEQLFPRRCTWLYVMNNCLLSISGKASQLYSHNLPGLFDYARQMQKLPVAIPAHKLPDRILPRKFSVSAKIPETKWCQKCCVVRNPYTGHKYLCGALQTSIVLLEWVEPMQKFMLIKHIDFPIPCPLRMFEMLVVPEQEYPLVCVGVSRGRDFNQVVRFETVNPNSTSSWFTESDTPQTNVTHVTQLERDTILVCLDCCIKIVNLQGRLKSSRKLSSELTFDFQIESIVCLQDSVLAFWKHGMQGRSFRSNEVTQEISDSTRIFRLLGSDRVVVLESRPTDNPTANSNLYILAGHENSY
Sequence of UniProt O94768 (whole entry, looked up): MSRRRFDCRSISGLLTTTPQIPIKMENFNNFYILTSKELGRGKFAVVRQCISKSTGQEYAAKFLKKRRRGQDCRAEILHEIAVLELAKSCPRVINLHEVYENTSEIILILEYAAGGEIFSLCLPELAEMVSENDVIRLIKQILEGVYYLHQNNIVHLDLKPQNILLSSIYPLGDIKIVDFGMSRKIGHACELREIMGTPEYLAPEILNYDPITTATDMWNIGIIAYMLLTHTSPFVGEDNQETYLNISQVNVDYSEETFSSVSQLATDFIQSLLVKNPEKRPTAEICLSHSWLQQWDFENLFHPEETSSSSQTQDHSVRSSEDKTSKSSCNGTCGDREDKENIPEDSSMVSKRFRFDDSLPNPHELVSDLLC
Sequence of UniProt Q9HC98 (whole entry, looked up): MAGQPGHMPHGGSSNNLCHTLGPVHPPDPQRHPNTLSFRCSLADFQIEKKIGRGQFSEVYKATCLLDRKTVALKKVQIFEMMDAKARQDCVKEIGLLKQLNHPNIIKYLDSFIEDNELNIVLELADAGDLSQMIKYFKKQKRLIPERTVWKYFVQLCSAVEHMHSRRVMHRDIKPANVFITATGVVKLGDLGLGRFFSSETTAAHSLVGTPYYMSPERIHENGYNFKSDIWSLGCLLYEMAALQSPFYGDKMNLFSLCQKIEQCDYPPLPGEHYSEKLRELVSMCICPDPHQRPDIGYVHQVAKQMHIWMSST
Sequence of UniProt O95382 (whole entry, looked up): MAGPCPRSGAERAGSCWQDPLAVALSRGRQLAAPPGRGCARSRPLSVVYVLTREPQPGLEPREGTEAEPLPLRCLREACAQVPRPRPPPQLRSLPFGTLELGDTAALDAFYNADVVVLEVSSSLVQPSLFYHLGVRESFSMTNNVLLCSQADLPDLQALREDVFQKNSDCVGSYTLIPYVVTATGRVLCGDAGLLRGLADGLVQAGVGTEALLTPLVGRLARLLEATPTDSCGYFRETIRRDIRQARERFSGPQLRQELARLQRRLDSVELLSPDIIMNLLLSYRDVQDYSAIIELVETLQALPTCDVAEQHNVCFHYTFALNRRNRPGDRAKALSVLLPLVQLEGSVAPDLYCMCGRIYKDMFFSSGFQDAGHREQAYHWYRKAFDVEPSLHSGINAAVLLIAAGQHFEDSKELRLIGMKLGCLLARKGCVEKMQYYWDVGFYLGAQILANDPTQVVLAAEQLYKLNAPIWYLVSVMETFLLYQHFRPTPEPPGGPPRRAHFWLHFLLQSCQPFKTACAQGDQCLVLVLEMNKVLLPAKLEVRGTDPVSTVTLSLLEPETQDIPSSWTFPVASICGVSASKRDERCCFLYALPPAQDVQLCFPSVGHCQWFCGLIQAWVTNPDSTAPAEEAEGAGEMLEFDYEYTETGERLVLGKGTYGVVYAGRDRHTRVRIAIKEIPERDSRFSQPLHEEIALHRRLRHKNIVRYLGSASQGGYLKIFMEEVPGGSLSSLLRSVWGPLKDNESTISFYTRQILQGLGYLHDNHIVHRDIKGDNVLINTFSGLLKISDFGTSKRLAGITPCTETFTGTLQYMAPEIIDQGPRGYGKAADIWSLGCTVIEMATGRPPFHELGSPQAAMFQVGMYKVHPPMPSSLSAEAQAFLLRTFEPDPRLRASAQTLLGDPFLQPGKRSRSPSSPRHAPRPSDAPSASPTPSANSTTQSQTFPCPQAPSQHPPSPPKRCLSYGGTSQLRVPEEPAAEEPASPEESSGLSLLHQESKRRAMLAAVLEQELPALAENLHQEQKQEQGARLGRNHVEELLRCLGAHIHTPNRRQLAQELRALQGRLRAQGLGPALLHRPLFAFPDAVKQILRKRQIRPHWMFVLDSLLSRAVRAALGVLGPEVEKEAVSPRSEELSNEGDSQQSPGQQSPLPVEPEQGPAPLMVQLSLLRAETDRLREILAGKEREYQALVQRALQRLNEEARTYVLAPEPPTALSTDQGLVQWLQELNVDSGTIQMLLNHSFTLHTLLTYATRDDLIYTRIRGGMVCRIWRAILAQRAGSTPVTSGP

Sample 1
Structure (SMILES): CNCc1ccccc1-c1csc([C@@H](C)Nc2nc(C)nc3cc(OC)c(OC)cc23)c1
Read-out: cell-free assay
Technique: competition with immobilised ligand
Tested at: 1 µM
The remaining binding was 100% (Mitogen-activated protein kinase 15 (MAPK15, Homo sapiens, UniProt Q8TD08)).
The remaining binding was 89% (Cyclin-dependent kinase 13 (CDK13, Homo sapiens, UniProt Q14004)).
It gave 83% for remaining binding (Serine/threonine-protein kinase pim-3 (PIM3, Homo sapiens, UniProt Q86V86)).
The remaining binding was 99% (Mitogen-activated protein kinase kinase kinase 6 (MAP3K6, Homo sapiens, UniProt O95382)).
For Serine/threonine-protein kinase 17B (STK17B, Homo sapiens, UniProt O94768): remaining binding read 92%.
For Interferon-induced, double-stranded RNA-activated protein kinase (EIF2AK2, Homo sapiens, UniProt P19525): remaining binding read 90%.
The remaining binding was 100% (Mast/stem cell growth factor receptor Kit (KIT, Homo sapiens, UniProt P10721)).
It gave 73% for remaining binding (Casein kinase I isoform alpha (CSNK1A1, Homo sapiens, UniProt P48729)).
Mitogen-activated protein kinase kinase kinase kinase 3 (MAP4K3, Homo sapiens, UniProt Q8IVH8) — remaining binding: 99%.
Serine/threonine-protein kinase SBK1 (SBK1, Homo sapiens, UniProt Q52WX2) — remaining binding: 100%.
The remaining binding was 99% (Calcium/calmodulin-dependent protein kinase type II subunit alpha (CAMK2A, Homo sapiens, UniProt Q9UQM7)).
It gave 97% for remaining binding (Serine/threonine-protein kinase PAK 4 (PAK4, Homo sapiens, UniProt O96013)).
The remaining binding was 96% (Serine/threonine-protein kinase Nek6 (NEK6, Homo sapiens, UniProt Q9HC98)).

Sample 2
Target: Histone acetyltransferase KAT6A, both winged helices, GST fusion (KAT6A, Homo sapiens, UniProt Q92794, residues 1-181)
Technique: protein binding microarray
Form: double-stranded DNA, one strand shown
Matrix: in vitro
Tested at: not given
Setting: 8-mer, flanks averaged, mean of 2 arrays, mostly near background
Baseline: not given
Direction: higher = stronger binding
Residues (chain): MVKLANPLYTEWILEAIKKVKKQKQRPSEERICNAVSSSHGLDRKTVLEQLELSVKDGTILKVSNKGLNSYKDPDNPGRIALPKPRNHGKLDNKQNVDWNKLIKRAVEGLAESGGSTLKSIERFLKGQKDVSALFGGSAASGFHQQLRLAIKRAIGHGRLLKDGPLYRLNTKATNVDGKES
With `GAGGCAAC` the E-score was 0.00352.
For `TAAGAGAA`, the E-score was -0.122.
For `TAATGCCA`, the E-score was -0.126.
With `ATAATAAT` the E-score was -0.118.
For `GAATGGCA`, the E-score was 0.0317.
With `AAGTGGGG` the E-score was -0.227.
The E-score of `AATTATGA` is reported as -0.0012.
With `GGTCTAAA` the E-score was -0.0877.

Sample 3
Structure (SMILES): Nc1nc(Nc2ccc(S(N)(=O)=O)cc2)nn1C(=S)Nc1c(F)cccc1F
Read-out: enzyme activity
Mode: inhibitor
Tested at: 0.5 µM
Baseline: control
It gave 77.1% for remaining activity (Mitogen-activated protein kinase 13 (MAPK13, Homo sapiens, UniProt O15264)).
Serine/threonine-protein kinase PLK2 (PLK2, Homo sapiens, UniProt Q9NYY3) — remaining activity: 88.5%.
The remaining activity was 27.2% (Tyrosine-protein kinase Lyn (LYN, Homo sapiens, UniProt P07948)).
It gave 78.9% for remaining activity (Protein kinase C iota type (PRKCI, Homo sapiens, UniProt P41743)).
It gave 60.5% for remaining activity (Serine/threonine-protein kinase Nek4 (NEK4, Homo sapiens, UniProt P51957)).
For Cyclin-dependent kinase 9, with cyclin T1 (CDK9, Homo sapiens, UniProt P50750): remaining activity read 15.6%.

Single results of other studies
The infection rate of `NC(=O)c1cccnc1` is reported as 102% (Plasmodium berghei; inhibitor; Huh-7, liver stage; 10 µM, 24 h; baseline: untreated control).
`PhoQ, residues 284 288 289 292 302 303 SSYNSA` gave a fold induction of 2.59 (PhoP, residues 12 14 15 18 19 AQCLL (Escherichia coli, UniProt P23836); Sort-seq, measured: YFP reporter; E. coli; PhoQ-PhoP variant library, added: 10 µM Mg2+; baseline: high Mg2+ state, higher = stronger signaling).
Under “dose-normalised AUC(0-inf) observed”, `COc1ccc(-c2c(Nc3ccccn3)[nH]c3c(C4=CCCCC4)c(-c4ccccc4)nn3c2=O)cc1` is recorded as 11300 ng·h/mL/mg (LC-MS/MS non-compartmental; human, plasma; 200 mg twice daily, cycle 1).
The infection rate of `C/C(=C\C(=O)OCCCCCCCCC(=O)O)C[C@@H]1OC[C@H](C[C@@H]2O[C@H]2[C@@H](C)[C@H](C)O)[C@@H](O)[C@H]1O` is reported as 110% (Plasmodium berghei; inhibitor; Huh-7, liver stage; 10 µM, 24 h; baseline: untreated control).
